# Experimental data collected from several papers.
# Numbered parts are unrelated; each lists some results of a single study.
# UniProt Q96J92, sequence (whole entry, looked up): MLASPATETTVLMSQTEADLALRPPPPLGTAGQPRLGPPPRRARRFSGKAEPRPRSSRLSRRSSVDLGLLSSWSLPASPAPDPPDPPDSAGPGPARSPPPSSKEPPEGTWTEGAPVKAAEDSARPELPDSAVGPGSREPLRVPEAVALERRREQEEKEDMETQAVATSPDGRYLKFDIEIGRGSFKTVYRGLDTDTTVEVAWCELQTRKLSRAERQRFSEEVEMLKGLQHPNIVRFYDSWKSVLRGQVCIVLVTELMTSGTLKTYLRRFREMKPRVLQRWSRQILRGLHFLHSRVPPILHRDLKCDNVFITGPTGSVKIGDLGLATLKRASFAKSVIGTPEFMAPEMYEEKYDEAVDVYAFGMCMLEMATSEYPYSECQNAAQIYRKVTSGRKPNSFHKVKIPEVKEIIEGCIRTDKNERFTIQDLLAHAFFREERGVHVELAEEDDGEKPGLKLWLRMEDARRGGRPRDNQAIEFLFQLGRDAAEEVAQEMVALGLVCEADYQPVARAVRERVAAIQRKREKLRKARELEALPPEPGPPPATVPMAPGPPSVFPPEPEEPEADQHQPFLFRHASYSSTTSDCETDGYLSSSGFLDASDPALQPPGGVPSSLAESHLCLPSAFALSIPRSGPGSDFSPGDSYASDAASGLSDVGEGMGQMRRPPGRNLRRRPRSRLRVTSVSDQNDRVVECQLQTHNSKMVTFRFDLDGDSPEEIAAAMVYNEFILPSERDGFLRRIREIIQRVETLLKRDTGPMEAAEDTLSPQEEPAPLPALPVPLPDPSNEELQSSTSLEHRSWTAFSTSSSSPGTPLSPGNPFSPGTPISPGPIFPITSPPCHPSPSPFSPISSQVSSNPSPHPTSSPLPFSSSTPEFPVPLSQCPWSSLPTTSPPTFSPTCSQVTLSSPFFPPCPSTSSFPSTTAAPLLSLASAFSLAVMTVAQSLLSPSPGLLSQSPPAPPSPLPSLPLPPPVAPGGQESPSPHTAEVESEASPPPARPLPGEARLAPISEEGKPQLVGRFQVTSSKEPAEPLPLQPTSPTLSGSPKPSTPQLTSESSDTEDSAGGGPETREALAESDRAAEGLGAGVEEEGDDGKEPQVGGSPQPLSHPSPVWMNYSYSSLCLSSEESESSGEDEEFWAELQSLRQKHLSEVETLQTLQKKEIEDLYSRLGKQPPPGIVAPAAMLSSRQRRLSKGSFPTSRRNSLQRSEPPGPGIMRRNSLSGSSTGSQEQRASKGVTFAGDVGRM
# UniProt P22607, sequence (whole entry, unmodified, looked up): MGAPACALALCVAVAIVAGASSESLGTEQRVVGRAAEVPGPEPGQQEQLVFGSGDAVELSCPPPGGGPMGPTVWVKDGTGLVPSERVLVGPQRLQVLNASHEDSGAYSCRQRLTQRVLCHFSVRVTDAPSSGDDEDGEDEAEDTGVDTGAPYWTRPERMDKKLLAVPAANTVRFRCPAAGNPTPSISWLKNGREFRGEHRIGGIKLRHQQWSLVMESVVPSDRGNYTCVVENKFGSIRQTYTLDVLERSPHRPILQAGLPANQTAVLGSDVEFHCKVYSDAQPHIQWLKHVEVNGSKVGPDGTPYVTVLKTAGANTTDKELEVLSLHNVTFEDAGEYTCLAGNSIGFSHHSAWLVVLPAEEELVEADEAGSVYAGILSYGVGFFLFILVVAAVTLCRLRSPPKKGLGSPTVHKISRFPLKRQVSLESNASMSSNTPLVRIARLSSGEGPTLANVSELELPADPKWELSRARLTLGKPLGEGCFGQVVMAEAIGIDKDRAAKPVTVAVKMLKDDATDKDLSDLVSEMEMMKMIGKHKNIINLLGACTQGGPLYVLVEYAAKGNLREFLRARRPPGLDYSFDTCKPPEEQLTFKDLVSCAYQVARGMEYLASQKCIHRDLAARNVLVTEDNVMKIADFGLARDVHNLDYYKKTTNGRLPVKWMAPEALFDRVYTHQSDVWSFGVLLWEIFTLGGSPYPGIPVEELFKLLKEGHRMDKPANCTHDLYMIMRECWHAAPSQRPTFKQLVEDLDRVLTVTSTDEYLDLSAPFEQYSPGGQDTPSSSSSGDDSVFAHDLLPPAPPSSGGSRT
# UniProt P19525, sequence (whole entry, looked up): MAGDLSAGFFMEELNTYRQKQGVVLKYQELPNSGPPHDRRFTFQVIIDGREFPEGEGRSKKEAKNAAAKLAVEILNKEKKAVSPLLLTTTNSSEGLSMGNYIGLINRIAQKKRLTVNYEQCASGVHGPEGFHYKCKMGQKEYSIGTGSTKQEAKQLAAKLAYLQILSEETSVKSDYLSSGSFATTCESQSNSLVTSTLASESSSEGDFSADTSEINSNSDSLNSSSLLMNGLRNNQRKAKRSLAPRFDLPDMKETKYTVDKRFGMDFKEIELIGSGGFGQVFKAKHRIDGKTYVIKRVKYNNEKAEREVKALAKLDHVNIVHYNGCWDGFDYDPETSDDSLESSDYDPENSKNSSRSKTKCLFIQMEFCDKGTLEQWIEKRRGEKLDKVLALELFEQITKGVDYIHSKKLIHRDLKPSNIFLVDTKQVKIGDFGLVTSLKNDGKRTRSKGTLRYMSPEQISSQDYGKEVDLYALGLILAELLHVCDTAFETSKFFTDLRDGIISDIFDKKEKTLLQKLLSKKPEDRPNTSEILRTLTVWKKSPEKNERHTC
# UniProt Q12866, sequence (whole entry, looked up): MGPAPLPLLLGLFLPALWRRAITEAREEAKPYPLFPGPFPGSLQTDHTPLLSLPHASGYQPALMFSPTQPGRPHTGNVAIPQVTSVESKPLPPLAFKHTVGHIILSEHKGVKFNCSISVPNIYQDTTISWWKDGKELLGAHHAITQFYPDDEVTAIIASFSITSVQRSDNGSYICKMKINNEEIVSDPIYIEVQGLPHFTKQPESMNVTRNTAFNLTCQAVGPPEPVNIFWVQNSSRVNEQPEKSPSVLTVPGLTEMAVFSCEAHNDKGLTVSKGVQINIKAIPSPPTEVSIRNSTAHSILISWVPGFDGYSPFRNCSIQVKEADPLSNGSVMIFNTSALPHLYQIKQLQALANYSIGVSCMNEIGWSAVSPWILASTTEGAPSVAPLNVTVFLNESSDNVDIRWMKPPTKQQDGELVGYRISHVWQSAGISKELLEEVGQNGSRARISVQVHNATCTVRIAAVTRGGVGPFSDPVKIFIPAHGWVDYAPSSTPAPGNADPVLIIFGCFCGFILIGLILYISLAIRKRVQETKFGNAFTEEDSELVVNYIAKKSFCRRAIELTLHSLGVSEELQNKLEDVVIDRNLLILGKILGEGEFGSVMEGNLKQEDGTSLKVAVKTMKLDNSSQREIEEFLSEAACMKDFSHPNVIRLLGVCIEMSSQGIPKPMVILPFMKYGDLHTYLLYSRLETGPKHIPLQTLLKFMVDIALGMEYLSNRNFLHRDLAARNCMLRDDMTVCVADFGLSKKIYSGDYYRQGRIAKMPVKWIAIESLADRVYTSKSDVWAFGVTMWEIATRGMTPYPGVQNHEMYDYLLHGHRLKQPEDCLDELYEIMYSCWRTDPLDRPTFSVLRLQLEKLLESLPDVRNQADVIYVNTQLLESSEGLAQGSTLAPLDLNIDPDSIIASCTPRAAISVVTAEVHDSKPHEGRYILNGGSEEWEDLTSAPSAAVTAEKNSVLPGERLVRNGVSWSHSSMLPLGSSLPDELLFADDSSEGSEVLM
# UniProt P68400, sequence (whole entry, looked up): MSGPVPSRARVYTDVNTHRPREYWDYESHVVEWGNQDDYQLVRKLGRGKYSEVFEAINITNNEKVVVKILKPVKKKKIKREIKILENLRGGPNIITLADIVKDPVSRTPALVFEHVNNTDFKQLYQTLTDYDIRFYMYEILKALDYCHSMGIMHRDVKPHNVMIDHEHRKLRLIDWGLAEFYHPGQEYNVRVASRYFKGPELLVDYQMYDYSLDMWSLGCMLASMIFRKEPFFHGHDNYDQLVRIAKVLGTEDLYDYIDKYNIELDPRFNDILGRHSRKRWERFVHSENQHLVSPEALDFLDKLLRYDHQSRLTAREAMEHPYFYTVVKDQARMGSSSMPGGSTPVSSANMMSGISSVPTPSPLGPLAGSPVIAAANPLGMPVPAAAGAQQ

# Series 1
# Cell line: HaCaT
# Tested at: 100 µM
# Time: 60 h
SMILES,viability [%]
CC(C)Oc1ccc2c(=O)c(-c3ccccc3)coc2c1,125
O=C(O)CCCNC(=O)c1cccnc1,147
CCCc1nc(C(C)(C)O)c(C(=O)OCc2oc(=O)oc2C)n1Cc1ccc(-c2ccccc2-c2nnn[nH]2)cc1,141
COc1ccccc1OCCNCC(O)COc1cccc2[nH]c3ccccc3c12 (stereo not shown),16
CC(=O)CCCCn1c(=O)c2c(ncn2C)n(C)c1=O,88.4
NC[C@H]1O[C@H](O[C@H]2[C@H](O)[C@@H](O[C@H]3O[C@H](CO)[C@@H](O)[C@H](N)[C@H]3O)[C@H](N)C[C@@H]2N)[C@H](N)C[C@@H]1O,135

# Series 2
# Target: Beta-1 adrenergic receptor (ADRB1, Homo sapiens, UniProt P08588)
# UniProt P08588, sequence (whole entry, looked up): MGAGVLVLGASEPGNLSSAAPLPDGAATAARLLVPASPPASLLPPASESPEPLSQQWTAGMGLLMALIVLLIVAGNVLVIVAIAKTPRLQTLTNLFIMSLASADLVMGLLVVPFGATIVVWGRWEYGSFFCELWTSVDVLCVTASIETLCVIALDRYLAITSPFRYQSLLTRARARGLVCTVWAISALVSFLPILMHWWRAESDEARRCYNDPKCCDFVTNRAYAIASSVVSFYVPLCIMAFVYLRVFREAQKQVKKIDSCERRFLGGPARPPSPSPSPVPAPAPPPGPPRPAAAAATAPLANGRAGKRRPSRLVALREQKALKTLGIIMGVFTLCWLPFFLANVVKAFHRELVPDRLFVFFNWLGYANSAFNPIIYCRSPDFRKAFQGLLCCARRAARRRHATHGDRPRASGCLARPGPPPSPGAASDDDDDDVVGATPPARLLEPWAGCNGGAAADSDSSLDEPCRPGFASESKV
# Mode: agonist
Structure (SMILES),EC50 [µM]
CN(C)c1ccc(CN2CC[C@H](c3nc4ccc(C(F)(F)F)cc4[nH]3)C2)cc1,≥ 100
CCOc1cc(N2CC=C(c3c[nH]c4ccc(OC)cc34)CC2)ncn1,≥ 100
O=C(Nc1ccccc1)Nc1ccc([C@@H](O)[C@H]2COCC(=O)N2Cc2ccc(F)cc2)cc1,≥ 100
O=C(NCC(O)c1ccccc1)c1cnn2c(-c3ccccc3)ccnc12 (stereo not shown),≥ 100
CN1CCN(CC(O)COc2ccc(CN3CC(c4ccccn4)C3)cc2)CC1 (stereo not shown),≥ 100
O=C1CCCN1CCC1CCN(Cc2cccc(OCC(O)CN3CCOCC3)c2)CC1 (stereo not shown),≥ 100
CC(=O)Oc1ccc2c(C)cc(=O)oc2c1,≥ 100
COCc1cc(NCC(O)COc2ccc(Cl)c(C)c2)ncn1 (stereo not shown),8.91
N#Cc1ccc(C(O)CN2CC=C(C3=NNC(=O)CC3)CC2)cc1 (stereo not shown),≥ 100
Cc1noc(C)c1-c1cc2cc(CNC3CCOCC3)oc2c(NC2CCN(C)CC2)n1,≥ 100

# Series 3
# Compound: O=C(NCCCC1CCCCC1)c1ccc(CNC(=O)c2cnn(-c3ccccc3)c2C(F)(F)F)cc1
# Technique: competition with immobilised ligand
# Tested at: 0.1 µM
target,observed,remaining binding [%]
"EIF2AK2 (Homo sapiens, UniProt P19525)",cell-free assay,64
"CDK14 (Homo sapiens, UniProt O94921)",cell-free assay,100
"Myosin-IIIb (MYO3B, Homo sapiens, UniProt Q8WXR4)",binding,100
"MAK (Homo sapiens, UniProt P20794)",cell-free assay,100
"CSNK2A1 (Homo sapiens, UniProt P68400)",cell-free assay,94
"WNK4 (Homo sapiens, UniProt Q96J92)",cell-free assay,100
"FGFR3 (Homo sapiens, UniProt P22607, G697C)",cell-free assay,100
"MERTK (Homo sapiens, UniProt Q12866)",cell-free assay,100

# Series 4
# Target: Dual specificity tyrosine-phosphorylation-regulated kinase 3 (DYRK3, Homo sapiens, UniProt O43781)
# UniProt O43781, sequence (whole entry, looked up): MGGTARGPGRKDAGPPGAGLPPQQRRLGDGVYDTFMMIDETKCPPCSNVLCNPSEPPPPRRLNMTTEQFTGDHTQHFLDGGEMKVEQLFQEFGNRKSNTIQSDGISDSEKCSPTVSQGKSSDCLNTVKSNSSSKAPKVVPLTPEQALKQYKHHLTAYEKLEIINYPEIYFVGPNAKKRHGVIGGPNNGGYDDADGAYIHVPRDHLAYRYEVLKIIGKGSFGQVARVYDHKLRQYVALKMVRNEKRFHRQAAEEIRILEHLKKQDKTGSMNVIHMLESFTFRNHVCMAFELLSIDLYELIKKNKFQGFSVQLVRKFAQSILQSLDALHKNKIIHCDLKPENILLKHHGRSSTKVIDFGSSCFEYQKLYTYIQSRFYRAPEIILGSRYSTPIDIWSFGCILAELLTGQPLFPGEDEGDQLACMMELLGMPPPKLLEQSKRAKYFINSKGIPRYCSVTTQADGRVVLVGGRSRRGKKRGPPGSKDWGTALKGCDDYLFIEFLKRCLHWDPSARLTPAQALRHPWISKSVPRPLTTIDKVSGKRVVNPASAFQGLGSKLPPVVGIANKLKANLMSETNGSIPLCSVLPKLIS
# Observed: enzyme activity
# Mode: inhibitor
# Tested at: 0.5 µM
# Reference: control
Compound,remaining activity [%]
COc1cc2nccc(Oc3ccc(NC(=S)NC(=O)c4ccccc4C)cc3)c2cc1OC,90.8
CN(C)c1ccc(C=C2C(=O)Nc3ccccc32)cc1,99.5
Nc1ncnc2n[nH]c(Nc3ccc(F)cc3)c12,89
Nc1ccc2ncnc(NCCc3ccc(Oc4ccccc4)cc3)c2c1,89.6
O=C(Nc1cccc(Nc2cc(Nc3cccc(C(F)(F)F)c3)ncn2)c1)C1CC1,101
O=C1NC(=O)C(c2cn(CCCO)c3ncccc23)=C1c1cnccn1,79.6
NCCNc1ncc(C(N)=O)c(Nc2cccc(C(F)(F)F)c2)n1,90.9
CCOC(=O)c1c(C)[nH]c(/C=C2\C(=O)Nc3ccccc32)c1C,102
O=C(O)c1ccc2c3c1cccc3c(=O)n1c3ccccc3nc21,92.3
Cn1c2ccccc2c2c3c(c4c5ccccc5n(CCC#N)c4c21)CNC3=O,83.9
O=C(CCCc1ccc(-c2ccccc2F)cc1)Nc1ccc(O)cc1,94.5
COc1cc2ncnc(Nc3ccc(F)c(Cl)c3)c2cc1OCCCN1CCOCC1,85
Nc1[nH]nc2nc3ccccc3nc12,102
CNC(=O)c1cc(Oc2ccc(NC(=O)Nc3ccc(Cl)c(C(F)(F)F)c3)cc2)ccn1,92.7
COc1ccc(C(=O)Nc2sc3c(c2C(N)=O)CCCC3)cc1OC,98
Cn1sc(=O)n(Cc2ccccc2)c1=O,108

# Repeated from above (series 2):
Structure (SMILES),EC50 [µM]
O=C(Nc1ccccc1)Nc1ccc([C@@H](O)[C@H]2COCC(=O)N2Cc2ccc(F)cc2)cc1,≥ 100
O=C1CCCN1CCC1CCN(Cc2cccc(OCC(O)CN3CCOCC3)c2)CC1 (stereo not shown),≥ 100
O=C(NCC(O)c1ccccc1)c1cnn2c(-c3ccccc3)ccnc12 (stereo not shown),≥ 100
CCOc1cc(N2CC=C(c3c[nH]c4ccc(OC)cc34)CC2)ncn1,≥ 100
